Published values of several laboratories.
Protocols differ between the studies behind these lines. Numbers after ± are the reported error.

The solubility of `O=C(O)c1ccc(C(=O)Nc2cc(C3CC3)n[nH]2)cc1` is reported as 1900 µg/mL (aqueous buffer; pH 7.4).
For `CC(C)(C(=O)N1CCOc2c(C#N)cncc2C1)C(F)F`, “subjects with adverse event” read 0% (refers to: disturbance in attention; human; oral, 10 mg once daily, 14 days, multiple ascending dose).
Under “TEAE, general disorders”, `COc1ccc([C@@H](O)c2cc(-c3ncnc4cc(N5CCOCC5)ccc34)c(F)cc2Cl)nn1` is recorded as 74% (locally advanced rectal cancer; all dose levels overall, together with: capecitabine and radiotherapy).
Under “total testosterone level”, `N#Cc1ccc2c(c1)[C@H]1CCCN(C(=O)c3ccc4[nH]cnc4c3)[C@H]1C2` is recorded as 0.6 nmol/L (human females; 360 mg, day 7).
With `Cc1c([C@@H]2COC[C@H](c3ccc(C(F)(F)F)cc3)N2)cnn1-c1ccccc1` the solubility was less than 4 µM (shake-flask, LC-HRMS; aqueous buffer; 16 h, pH 6.8).
`O=c1[nH]c(=O)n([C@@H]2O[C@H](CO)[C@@H](O)[C@@H]2F)cc1CCCCC[18F]` has a biodistribution of 0.07 ± 0.03 %ID/g (nude mice, RG2 tumour, skin; intravenous, dose not given, 2 h).
Under “average plasma concentration”, `CCc1cc2c(cc1N1CCC(N3CCOCC3)CC1)C(C)(C)c1[nH]c3cc(C#N)ccc3c1C2=O` is recorded as 1480 nM (ALK inhibitor-naive patients; oral, 600 mg twice daily, week 6).
`CNC(=O)c1ccc(-c2cnc3ncc(Cc4ccc5ncccc5c4)n3n2)cc1F` has an AUC(0-t) of 5580 ng·h/mL (human, plasma; oral, 200 mg, mean).
`CN(CCCN1CCN(C(=O)CN2CCN(CC(=O)[O-])CCN(CC(=O)[O-])CCN(CC(=O)[O-])CC2)CC1)c1ccc2nccc(C(=O)NCC(=O)N3CC(F)(F)C[C@H]3C#N)c2c1.[68Ga+3]` gave an uptake of 0.2 ± 0.1 %IA/g (mice, HT-1080.hFAP and HT-1080 wild-type xenografts, spleen; iv, 500 pmol, 4 h post injection).
`Cc1cc(NC2CCN(C(=O)OC3CCN(C(=O)/C=C/CN(C)C)C3)CC2)n2ncc(C(C)C)c2n1` (stereo not drawn) — result for “patients with adverse event”: 2% (Phase I dose escalation CTCAE v4.0, refers to: blood creatinine increased; patients with advanced solid tumours; dose not given, QD dosing any grade).
Under “QTc interval change”, `CCN1/C(=C/C(C)=O)Sc2ccc(F)cc21` is recorded as 96.7 ± 2.1% (cynomolgus monkey; oral, 10 mg/kg, 24 h post-dose; relative to: pre-dose).
`NC1(C(=O)N[C@@H](CCO)c2ccc(Cl)cc2)CCN(c2nc[nH]c3nccc2-3)CC1` — result for “incidence of Somnolence”: 0% (metastatic CRPC patients; 480 mg b.i.d., any grade, treatment-related, together with: enzalutamide 160 mg daily).
With `CCOC(=O)N1C[C@H](CC(C)C)N[C@H](c2ccc(C(C)=O)cc2)C1` the solubility was greater than 750 µM (shake-flask, LC-HRMS; aqueous buffer; 16 h, pH 6.8).
Under “urinary magnesium excretion change”, `Cc1ccc([C@@H]2O[C@H](CO)[C@@H](O)[C@H](O)[C@H]2O)cc1Cc1ccc(-c2ccc(F)cc2)s1` is recorded as -7.11 mg (Japanese type 2 diabetes patients; 200 mg, day 6, 24 h urine collection; relative to: baseline).
`COC(=O)c1ccc([C@@H]2COC[C@H](c3cnn(C)c3)N2)cc1` gave a solubility of greater than 750 µM (shake-flask, LC-HRMS; aqueous buffer; 16 h, pH 6.8).
Under “patients with adverse event”, `CNC(=O)c1ccc(-c2cnc3ncc(Cc4ccc5ncccc5c4)n3n2)cc1F` is recorded as 5% (refers to: Cough, all grades; cancer patients; oral, 600 mg twice daily, expansion cohort, any causality).
`CCOC(=O)N1C[C@@H](c2sc(N(C)C)nc2C)N[C@@H](c2ccc(F)c3ccccc23)C1` gave a solubility of less than 4 µM (shake-flask, LC-HRMS; aqueous buffer; 16 h, pH 6.8).
`CO[C@H]1/C=C/O[C@@]2(C)Oc3c(C)c(O)c4c(O)c(c(/C=N/N5CCN(C)CC5)c(O)c4c3C2=O)NC(=O)/C(C)=C\C=C\[C@H](C)[C@H](O)[C@@H](C)[C@@H](O)[C@@H](C)[C@H](OC(C)=O)[C@@H]1C`: “gastrointestinal adverse events” 20.8% (healthy humans; oral, dose not given).
`O=C(CSc1nnc(-c2ccccc2O)n1-c1ccccc1)Nc1cccc(C(=O)O)c1` has a solubility of 40.3 µg/mL (aqueous buffer; pH 7.4).
`O=C(N[C@H](Cc1c[nH]c2ccccc12)C(=O)Nc1ccncc1)c1ccc(-c2ccc(F)c(Cl)c2)cc1F` gave a concentration of 18.6 µM (Swiss Webster mouse, female, fat; oral, 50 mg/kg, 8 h, 20% Kolliphor vehicle).
`Cc1coc([C@H]2C[C@H]3[C@@H](CF)SC(N)=N[C@@]3(c3ccc(F)cc3F)CO2)n1` has a CSF concentration of 28 nM (male 129/SVE mouse, CSF; subcutaneous, 80 mg/kg, 14 h).
`Cc1cccc(CNC(=O)c2cn(CCNC(=O)c3ccccc3Sc3c([N+](=O)[O-])ncn3C)c3cc4c(cc3c2=O)OC(F)(F)O4)n1` has an MRT(0-inf) of 0.67 ± 0.09 h (Sprague-Dawley rat, male, plasma; intravenous, 5 mg/kg of parent compound).
`O=C(O)c1cccc(C(=O)O)c1`: “apparent standard dissolution enthalpy” 7.8 kcal/mol (water; 303.0 K).
`CCOC(=O)N1C[C@@H](c2cccnc2)N[C@@H](c2ccc(C(=O)OC)cc2)C1` has a solubility of greater than 750 µM (shake-flask, LC-HRMS; aqueous buffer; 16 h, pH 6.8).
`COc1cccc(OC)c1NS(=O)(=O)c1ccc(N/C=C2\C(=O)Nc3ccc4ncsc4c32)cc1` gave a solubility of less than 2.72 µg/mL (aqueous buffer; pH 7.4).
`C[C@H](CCC(=O)NCCS(=O)(=O)O)[C@H]1CC[C@H]2[C@@H]3[C@H](O)C[C@@H]4C[C@H](O)CC[C@]4(C)[C@H]3C[C@H](O)[C@]12C` gave a Cmin of 0.0081 ± 0.00055 µM (human, plasma; endogenous baseline diurnal).
`O=c1[nH]c(=O)n([C@@H]2O[C@H](CO)[C@@H](O)[C@@H]2F)cc1CCC[18F]` has a biodistribution of 0.18 ± 0.15 %ID/g (nude mice, RG2 tumour, skin; intravenous, dose not given, 2 h).
Under “treatment-emergent adverse events”, `O=C(Nc1nc2cccc(-c3ccc(CN4CCS(=O)(=O)CC4)cc3)n2n1)C1CC1` is recorded as 33.3% (refers to: nervous system disorders; human rheumatoid arthritis patients; oral, 200 mg once daily, 4 weeks, regardless of relatedness).
For `CCc1cc(C(=O)NC)c2nccc(N3CCc4c(cc(Cn5ccnc5)cc4-c4cn(C)nc4C(F)(F)F)C3=O)c2c1`, the MRT(0-inf) was 2.5 h (Sprague Dawley rat, male, plasma; oral, 50 mg/kg once daily, 7 days, toxicokinetic satellite group).
With `CC(C)c1nc(CN(C)C(=O)N[C@@H](CCN2CCOCC2)C(=O)N[C@H](CC[C@H](Cc2ccccc2)NC(=O)OCc2cncs2)Cc2ccccc2)cs1` the any TEAE was 38.5% (human; oral, 150 mg, drug interaction trial).
`CNCCOC12CC3(C)CC(C)(CC(Cn4ncc(-c5ccc(N6CCc7cccc(C(=O)Nc8nc9ccccc9s8)c7C6)nc5C(=O)O)c4C)(C3)C1)C2`: “QRS duration change” 1 ms (beagle dog, male, anaesthetised; intravenous bolus, 0.03 mg/kg, 5 min; relative to: baseline).
`CCN1CCN(Cc2ccc(NC(=O)c3ccc(C)c(NC(=O)c4cncc(-c5cccs5)c4)c3)cc2C(F)(F)F)CC1`: “apparent volume of distribution” 8.26 L/kg (C57BL/6 mice, epithelial lining fluid; intraperitoneal, 20 mg/kg).
`NC/C(=C\F)COc1cccc(Cn2c(=S)[nH]c(=O)c3[nH]cnc32)c1` has a concentration of 1140 ng/mL (C57BL/6J mice, kidney; oral, 15 mg/kg single, 1 h).
Under “excretion as parent”, `Cc1cc(C)c(CNC(=O)c2cc(Cl)c3c(c2C)O[C@@](C)([C@H]2CC[C@H](N(C)C)CC2)O3)c(=O)[nH]1` is recorded as 10% (human male, urine; oral, 200 mg, 0 to 48 h; relative to: dose).
The SUV of `[18F]c1ccc(-c2ccc3c(c2)[nH]c2ccncc23)cn1` is reported as 0.367 ± 0.117 (ex vivo biodistribution; B6SJL mouse, normal, cerebellum; intravenous, 30 min).
For `CCCCOc1ccc([C@H]2CC[C@H](CCC)CC2)c(F)c1F`, the placental accumulation was 18.8 ± 9.14 ng/g (rat, placenta; 10 ng/mL in perfusate, low dose, mixture of 21 LCMs).
For `Cc1cccc([C@H]2N[C@@H](c3ccc(-c4ccccn4)cc3)CO[C@@H]2C)c1`, the solubility was less than 4 µM (shake-flask, LC-HRMS; aqueous buffer; 16 h, pH 6.8).
For `C=CCN1CC(=O)N2[C@@H](Cc3ccc(O)cc3F)C(=O)N(Cc3cccc(N4CC(N5CCN(CC)CC5)C4)n3)C[C@@H]2N1C(=O)NCc1ccccc1`, “treatment-related adverse events” read 0% (refers to: Diarrhea; advanced solid tumour patients; all doses, expansion part, grade ≥3).
With `CC/C=C\C/C=C\C/C=C\C/C=C\C/C=C\C/C=C\CCC(=O)O.Cc1cc(/C=C/C#N)cc(C)c1Nc1ccnc(Nc2ccc(C#N)cc2)n1` the equilibrium solubility was 0.54 ± 0.08 µg/mL (water).
The stability of `O=C(N/N=C/c1ccccc1O)c1ccncc1` is reported as 94.2% (DMEM cell medium; 57 µM, 12 h, 5 °C, post-preparative, autosampler).
For `O=C(O)CCC(=O)O.[2H]C([2H])([2H])Oc1cc(C)c2[nH]ccc2c1CN1CC[C@@H](C2CC2)C[C@H]1c1ccc(C(=O)O)cc1`, “subjects with allergic dermatitis TEAE” read 0% (multiple ascending dose; healthy Chinese subjects; 300 mg once daily).
`CCOc1c([C@H](C)n2nc(C)c3c(N)ncnc32)cc(Cl)c(F)c1[C@@H]1CNC(=O)C1` gave a patients of 0% (refers to: QTcF above 500 ms; previously treated B-cell malignancy; oral, 30 mg once daily, baseline QTcF ≤450 ms).

A few entries again:
`CCOC(=O)N1C[C@@H](c2sc(N(C)C)nc2C)N[C@@H](c2ccc(F)c3ccccc23)C1` gave a solubility of less than 4 µM (shake-flask, LC-HRMS; aqueous buffer; 16 h, pH 6.8).
`CO[C@H]1/C=C/O[C@@]2(C)Oc3c(C)c(O)c4c(O)c(c(/C=N/N5CCN(C)CC5)c(O)c4c3C2=O)NC(=O)/C(C)=C\C=C\[C@H](C)[C@H](O)[C@@H](C)[C@@H](O)[C@@H](C)[C@H](OC(C)=O)[C@@H]1C`: “gastrointestinal adverse events” 20.8% (healthy humans; oral, dose not given).
